Results from different studies.
A part holds a random share of what one study measured.
Sequence of UniProt P29323 (whole entry, looked up): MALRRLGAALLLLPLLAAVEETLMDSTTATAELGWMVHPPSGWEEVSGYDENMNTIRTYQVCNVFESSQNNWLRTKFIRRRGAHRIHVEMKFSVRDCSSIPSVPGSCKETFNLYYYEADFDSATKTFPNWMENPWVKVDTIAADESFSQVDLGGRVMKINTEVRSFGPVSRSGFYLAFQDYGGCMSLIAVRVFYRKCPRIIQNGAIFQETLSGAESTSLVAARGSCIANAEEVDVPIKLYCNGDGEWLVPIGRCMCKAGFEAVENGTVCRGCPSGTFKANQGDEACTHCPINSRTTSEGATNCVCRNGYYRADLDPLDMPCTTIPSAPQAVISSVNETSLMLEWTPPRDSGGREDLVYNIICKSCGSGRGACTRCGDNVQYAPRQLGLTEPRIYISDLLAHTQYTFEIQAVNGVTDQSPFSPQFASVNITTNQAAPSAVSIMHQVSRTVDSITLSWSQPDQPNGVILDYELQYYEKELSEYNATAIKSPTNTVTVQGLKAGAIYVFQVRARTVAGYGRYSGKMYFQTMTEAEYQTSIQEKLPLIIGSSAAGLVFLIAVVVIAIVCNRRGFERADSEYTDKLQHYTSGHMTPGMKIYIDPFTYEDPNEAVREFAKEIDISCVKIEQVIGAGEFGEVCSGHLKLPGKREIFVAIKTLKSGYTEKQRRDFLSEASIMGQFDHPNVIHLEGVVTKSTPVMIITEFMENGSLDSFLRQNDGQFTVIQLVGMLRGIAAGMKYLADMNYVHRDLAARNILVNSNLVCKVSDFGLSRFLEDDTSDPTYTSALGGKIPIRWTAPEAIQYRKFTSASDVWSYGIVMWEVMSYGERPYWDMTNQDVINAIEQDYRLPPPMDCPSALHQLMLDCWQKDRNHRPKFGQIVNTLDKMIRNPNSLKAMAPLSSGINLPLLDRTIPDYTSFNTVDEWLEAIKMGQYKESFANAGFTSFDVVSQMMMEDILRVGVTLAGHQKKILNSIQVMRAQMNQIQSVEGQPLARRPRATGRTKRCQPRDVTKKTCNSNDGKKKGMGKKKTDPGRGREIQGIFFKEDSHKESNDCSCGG
Sequence of UniProt Q13705 (whole entry, looked up): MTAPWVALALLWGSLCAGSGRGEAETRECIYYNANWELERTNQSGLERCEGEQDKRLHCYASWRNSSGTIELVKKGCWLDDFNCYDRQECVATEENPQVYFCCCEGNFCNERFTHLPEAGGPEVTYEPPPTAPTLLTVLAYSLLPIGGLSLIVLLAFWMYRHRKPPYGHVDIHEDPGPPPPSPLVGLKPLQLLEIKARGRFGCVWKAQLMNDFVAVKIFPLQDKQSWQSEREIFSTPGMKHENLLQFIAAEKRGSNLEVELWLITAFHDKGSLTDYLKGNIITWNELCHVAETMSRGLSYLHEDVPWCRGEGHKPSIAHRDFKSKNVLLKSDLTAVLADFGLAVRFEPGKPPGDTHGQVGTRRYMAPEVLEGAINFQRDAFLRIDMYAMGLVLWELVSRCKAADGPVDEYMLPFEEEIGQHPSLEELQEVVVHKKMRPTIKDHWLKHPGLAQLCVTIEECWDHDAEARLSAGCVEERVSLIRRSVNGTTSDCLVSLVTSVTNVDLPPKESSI
Sequence of UniProt P19525 (whole entry, looked up): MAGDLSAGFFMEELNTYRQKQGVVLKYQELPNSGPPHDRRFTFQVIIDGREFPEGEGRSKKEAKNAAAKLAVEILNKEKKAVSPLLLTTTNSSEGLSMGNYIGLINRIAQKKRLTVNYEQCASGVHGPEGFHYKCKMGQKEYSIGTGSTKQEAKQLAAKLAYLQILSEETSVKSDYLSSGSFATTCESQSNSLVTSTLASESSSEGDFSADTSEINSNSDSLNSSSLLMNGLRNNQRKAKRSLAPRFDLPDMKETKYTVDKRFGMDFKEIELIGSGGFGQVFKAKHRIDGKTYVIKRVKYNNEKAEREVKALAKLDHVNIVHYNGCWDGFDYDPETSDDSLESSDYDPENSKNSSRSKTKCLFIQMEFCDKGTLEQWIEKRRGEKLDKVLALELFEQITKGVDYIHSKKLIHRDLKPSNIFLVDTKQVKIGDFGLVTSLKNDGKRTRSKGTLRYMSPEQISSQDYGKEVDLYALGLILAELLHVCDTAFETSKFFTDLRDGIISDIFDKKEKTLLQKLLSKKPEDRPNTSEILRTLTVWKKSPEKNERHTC
Sequence of UniProt P51812 (whole entry, looked up): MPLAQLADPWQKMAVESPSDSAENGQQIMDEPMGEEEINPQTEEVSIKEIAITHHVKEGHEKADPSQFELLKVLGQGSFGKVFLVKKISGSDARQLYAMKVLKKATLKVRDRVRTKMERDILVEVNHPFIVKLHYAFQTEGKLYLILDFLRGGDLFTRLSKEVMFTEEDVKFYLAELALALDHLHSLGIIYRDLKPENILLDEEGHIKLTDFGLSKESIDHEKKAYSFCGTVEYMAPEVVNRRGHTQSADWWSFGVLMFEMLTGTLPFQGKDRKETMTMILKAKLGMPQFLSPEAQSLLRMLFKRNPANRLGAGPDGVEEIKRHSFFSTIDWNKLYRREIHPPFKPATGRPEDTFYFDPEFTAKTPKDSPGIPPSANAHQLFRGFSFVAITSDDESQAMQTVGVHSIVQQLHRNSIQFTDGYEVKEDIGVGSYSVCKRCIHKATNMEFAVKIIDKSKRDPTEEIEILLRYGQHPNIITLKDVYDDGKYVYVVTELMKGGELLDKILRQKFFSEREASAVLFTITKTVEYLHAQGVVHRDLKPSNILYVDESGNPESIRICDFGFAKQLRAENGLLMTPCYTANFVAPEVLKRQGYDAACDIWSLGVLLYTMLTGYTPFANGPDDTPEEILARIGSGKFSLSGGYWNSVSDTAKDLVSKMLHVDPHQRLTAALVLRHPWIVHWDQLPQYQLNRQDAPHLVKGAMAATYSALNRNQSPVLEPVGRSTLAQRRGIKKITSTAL
Sequence of UniProt Q13554 (whole entry, looked up): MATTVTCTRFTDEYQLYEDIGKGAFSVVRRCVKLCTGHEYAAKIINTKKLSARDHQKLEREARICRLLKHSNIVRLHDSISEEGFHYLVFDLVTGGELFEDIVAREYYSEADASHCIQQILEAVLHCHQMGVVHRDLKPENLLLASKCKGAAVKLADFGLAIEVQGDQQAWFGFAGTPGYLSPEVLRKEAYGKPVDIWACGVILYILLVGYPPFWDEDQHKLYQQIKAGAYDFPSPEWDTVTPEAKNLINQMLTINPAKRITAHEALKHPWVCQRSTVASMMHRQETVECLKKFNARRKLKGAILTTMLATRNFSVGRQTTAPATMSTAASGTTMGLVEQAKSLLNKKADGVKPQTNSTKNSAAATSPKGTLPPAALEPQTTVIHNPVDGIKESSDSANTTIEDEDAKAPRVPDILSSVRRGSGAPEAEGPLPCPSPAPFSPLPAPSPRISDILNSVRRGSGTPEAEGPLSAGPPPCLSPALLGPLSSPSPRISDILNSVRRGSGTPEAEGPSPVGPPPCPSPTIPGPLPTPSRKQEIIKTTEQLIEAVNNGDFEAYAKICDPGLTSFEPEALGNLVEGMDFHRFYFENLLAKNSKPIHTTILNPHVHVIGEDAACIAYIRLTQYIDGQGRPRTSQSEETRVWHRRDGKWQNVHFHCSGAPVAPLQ
Sequence of UniProt P11802 (whole entry, looked up): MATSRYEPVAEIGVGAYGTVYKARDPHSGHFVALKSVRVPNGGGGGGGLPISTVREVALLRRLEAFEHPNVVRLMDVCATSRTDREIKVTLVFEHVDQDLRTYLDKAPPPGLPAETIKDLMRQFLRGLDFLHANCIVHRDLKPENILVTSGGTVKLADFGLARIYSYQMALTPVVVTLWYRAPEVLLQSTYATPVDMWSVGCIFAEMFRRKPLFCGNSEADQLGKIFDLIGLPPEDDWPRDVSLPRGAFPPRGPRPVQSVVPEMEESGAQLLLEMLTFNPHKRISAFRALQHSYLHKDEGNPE

Series 1 — effect on: enzyme activity; action: inhibitor; tested at: 10 µM
Target: Calcium/calmodulin-dependent protein kinase type II subunit alpha (CAMK2A, Homo sapiens, UniProt Q9UQM7)
Sequence of UniProt Q9UQM7 (whole entry, looked up): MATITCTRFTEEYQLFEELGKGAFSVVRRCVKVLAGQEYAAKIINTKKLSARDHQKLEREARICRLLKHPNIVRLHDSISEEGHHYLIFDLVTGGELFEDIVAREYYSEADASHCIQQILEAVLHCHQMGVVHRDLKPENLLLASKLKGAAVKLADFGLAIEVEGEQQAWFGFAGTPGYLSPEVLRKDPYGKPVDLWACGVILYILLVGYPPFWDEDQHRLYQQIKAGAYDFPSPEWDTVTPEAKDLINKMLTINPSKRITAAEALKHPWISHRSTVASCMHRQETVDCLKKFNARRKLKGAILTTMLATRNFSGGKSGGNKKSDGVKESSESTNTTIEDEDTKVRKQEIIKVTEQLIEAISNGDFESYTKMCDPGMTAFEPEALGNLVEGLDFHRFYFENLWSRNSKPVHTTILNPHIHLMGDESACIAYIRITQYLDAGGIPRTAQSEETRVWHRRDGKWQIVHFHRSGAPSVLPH
SMILES | inhibition [%]
COc1cc2oc(-c3ccccc3)cc(=O)c2c(O)c1O | -9
C[C@@H]([C@H](C)O)[C@H](N)C(=O)O | 37
Clc1ccc(C(c2ccccc2Cl)C(Cl)Cl)cc1 (stereo not shown) | -2
CC(C)=CCC[C@](C)(O[C@@H]1O[C@H](CO[C@@H]2O[C@H](CO)[C@@H](O)[C@H](O)[C@H]2O)[C@@H](O)[C@H](O)[C@H]1O)[C@H]1CC[C@]2(C)[C@@H]1[C@H](O)C[C@@H]1[C@@]3(C)CC[C@H](O[C@@H]4O[C@H](CO)[C@@H](O)[C@H](O)[C@H]4O)C(C)(C)[C@@H]3CC[C@]12C | 45
Nc1ccc(NC(=O)c2ccc(C(F)(F)F)cc2)nc1 | 5
CC(C)N1CCN(c2ccc(OC[C@H]3CO[C@](Cn4cncn4)(c4ccc(Cl)cc4Cl)O3)cc2)CC1 (racemic) | 5
COc1cc(-c2cc(=O)c3c(O)cc(O[C@@H]4O[C@H](CO)[C@@H](O)[C@H](O)[C@H]4O[C@@H]4OC[C@](O)(CO)[C@H]4O)cc3o2)ccc1O | 19
O=c1[nH]c(=O)c2nc[nH]c2[nH]1 | -9
O=C(O)CCNC(=O)c1ccccc1 | -3
OC[C@H]1O[C@@H](O[C@H]2[C@H](O)[C@@H](O)C(O)O[C@@H]2CO)[C@H](O)[C@@H](O)[C@H]1O (stereo partly shown) | -8
Cc1cc(C)c(O)c(C)c1 | -26

Series 2 — technique: competition with immobilised ligand; tested at: 1 µM
Compound: CC(=O)N1CCC(c2ccc(C(=O)NC3=NCCN3)cc2C(F)(F)F)CC1
target | test | remaining binding [%]
PIP4K2B (Homo sapiens, UniProt P78356) | cell-free assay | 75
Tyrosine-protein kinase ABL1, phosphorylated (ABL1, Homo sapiens, UniProt P00519) | cell-free assay | 83
PRKG2 (Homo sapiens, UniProt Q13237) | cell-free assay | 100
RIPK4 (Homo sapiens, UniProt P57078) | cell-free assay | 64
Ribosomal protein S6 kinase alpha-3, C-terminal kinase domain (RPS6KA3, Homo sapiens, UniProt P51812) | cell-free assay | 99
Cyclin-dependent kinase 4, with cyclin D3 (CDK4, Homo sapiens, UniProt P11802) | cell-free assay | 100
ACVR2B (Homo sapiens, UniProt Q13705) | binding | 100
ERBB4 (Homo sapiens, UniProt Q15303) | cell-free assay | 100
DCLK2 (Homo sapiens, UniProt Q8N568) | cell-free assay | 88
DAPK3 (Homo sapiens, UniProt O43293) | cell-free assay | 84
PIK3C3 (Homo sapiens, UniProt Q8NEB9) | cell-free assay | 88
IKBKE (Homo sapiens, UniProt Q14164) | cell-free assay | 71
INSRR (Homo sapiens, UniProt P14616) | cell-free assay | 81
EGFR (Homo sapiens, UniProt P00533, del747-752/P753S) | cell-free assay | 100
EPHB2 (Homo sapiens, UniProt P29323) | cell-free assay | 82
PAK1 (Homo sapiens, UniProt Q13153) | cell-free assay | 98
WNK4 (Homo sapiens, UniProt Q96J92) | cell-free assay | 100
SGK2 (Homo sapiens, UniProt Q9HBY8) | cell-free assay | 100
CLK2 (Homo sapiens, UniProt P49760) | cell-free assay | 91
EIF2AK2 (Homo sapiens, UniProt P19525) | cell-free assay | 100
PDGFRB (Homo sapiens, UniProt P09619) | cell-free assay | 95
VRK2 (Homo sapiens, UniProt Q86Y07) | cell-free assay | 100
CAMK2B (Homo sapiens, UniProt Q13554) | cell-free assay | 88
TNNI3K (Homo sapiens, UniProt Q59H18) | cell-free assay | 98
ACVR2A (Homo sapiens, UniProt P27037) | cell-free assay | 100

Series 3 — organism: Sarcocystis neurona; effect on: parasite growth; tested at: 10 µM; setting: secondary screen
Structure (SMILES) | inhibition
COc1cccc2c1C(=O)c1c(O)c3c(c(O)c1C2=O)C[C@@](O)(C(C)=O)C[C@@H]3O[C@H]1C[C@H](N)[C@H](O)[C@H](C)O1 | 95.6%
CC(=O)[C@]1(O)Cc2c(O)c3c(c(O)c2[C@@H](O[C@H]2C[C@H](N)[C@H](O)[C@H](C)O2)C1)C(=O)c1ccccc1C3=O | 98.7%
c1cnc(N2CCN(Cc3ccc4c(c3)OCO4)CC2)nc1 | -51.3%
CO[C@H]1/C=C/O[C@@]2(C)Oc3c(C)c(O)c4c(O)c(c5c(nc6cc(C)ccn65)c4c3C2=O)NC(=O)/C(C)=C\C=C\[C@H](C)[C@H](O)[C@@H](C)[C@@H](O)[C@@H](C)[C@H](OC(C)=O)[C@@H]1C | -41.9%
CCC1=C[C@@H]2CN(C1)Cc1c([nH]c3ccccc13)[C@@](C(=O)OC)(c1cc3c(cc1OC)N(C)[C@H]1[C@@](O)(C(=O)OC)[C@H](OC(C)=O)[C@]4(CC)C=CCN5CC[C@]31[C@@H]54)C2.O=C(O)C(O)C(O)C(=O)O.O=C(O)C(O)C(O)C(=O)O | -13.5%
CCC[C@@H]1C[C@@H](C(=O)N[C@@H]([C@H]2O[C@H](SC)[C@H](O)[C@@H](O)[C@H]2O)[C@@H](C)O)N(C)C1 | 5.6%
CC(C)n1c(/C=C/C(O)CC(O)CC(=O)O)c(-c2ccc(F)cc2)c2ccccc21 (stereo not shown) | -40.5%
COc1ccc([C@@H]2Sc3ccccc3N(CCN(C)C)C(=O)[C@@H]2OC(C)=O)cc1 | 8.7%
COC1=C(OC)C(=O)C(CCCCCCCCCCO)=C(C)C1=O | -22.8%
O=C(O)COCCN1CCN([C@H](c2ccccc2)c2ccc(Cl)cc2)CC1 | -46.6%
CC(C(=O)O)c1cccc(C(=O)c2ccccc2)c1 (stereo not shown) | -37.1%
CC[C@]1(O)C[C@H]2CN(CCc3c([nH]c4ccccc34)[C@@](C(=O)OC)(c3cc4c(cc3OC)N(C=O)[C@H]3[C@@](O)(C(=O)OC)[C@H](OC(C)=O)[C@]5(CC)C=CCN6CC[C@]43[C@@H]65)C2)C1 | -22.5%
O=C(c1ccccc1)c1ccc2n1CCC2C(=O)O (stereo not shown) | -67.7%

Series 4 — effect on: enzyme activity; action: inhibitor; tested at: 0.5 µM; relative to: control
Target: Serine/threonine-protein kinase PAK 5 (PAK5, Homo sapiens, UniProt Q9P286)
Sequence of UniProt Q9P286 (whole entry, looked up): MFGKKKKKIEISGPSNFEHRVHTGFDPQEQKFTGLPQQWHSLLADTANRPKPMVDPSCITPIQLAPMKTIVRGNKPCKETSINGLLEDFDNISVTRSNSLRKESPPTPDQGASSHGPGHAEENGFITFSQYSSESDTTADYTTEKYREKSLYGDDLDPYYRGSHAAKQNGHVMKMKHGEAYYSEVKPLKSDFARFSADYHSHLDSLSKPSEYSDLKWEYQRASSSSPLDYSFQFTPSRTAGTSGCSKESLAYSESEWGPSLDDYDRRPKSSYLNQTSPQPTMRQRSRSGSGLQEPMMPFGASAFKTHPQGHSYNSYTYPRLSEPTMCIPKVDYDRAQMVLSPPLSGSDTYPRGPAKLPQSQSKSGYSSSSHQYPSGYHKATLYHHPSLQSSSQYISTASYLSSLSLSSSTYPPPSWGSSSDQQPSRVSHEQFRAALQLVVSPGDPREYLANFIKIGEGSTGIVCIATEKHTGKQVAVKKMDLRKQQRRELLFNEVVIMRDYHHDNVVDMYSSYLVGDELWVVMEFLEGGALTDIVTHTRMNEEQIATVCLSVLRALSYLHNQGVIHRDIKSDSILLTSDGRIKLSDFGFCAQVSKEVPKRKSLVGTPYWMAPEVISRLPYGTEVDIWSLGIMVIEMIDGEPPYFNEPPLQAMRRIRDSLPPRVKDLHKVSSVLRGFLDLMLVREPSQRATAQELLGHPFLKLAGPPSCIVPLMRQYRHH
Compound | remaining activity [%]
COc1ccc(S(=O)(=O)N(CCO)c2ccccc2CN(C)CC=Cc2ccc(Cl)cc2)cc1 | 107
Nc1nccc(-c2c(-c3ccc(F)cc3)ncn2C2CCNCC2)n1 | 101
Cc1cncc2cccc(S(=O)(=O)N3CCCN(C(=O)CN)C[C@@H]3C)c12 | 100
CCc1[nH]c(-c2ccc(OC)cc2)nc1-c1ccncc1 | 101
COc1cc(Nc2c(C#N)cnc3cc(OCCCN4CCN(C)CC4)c(OC)cc23)c(Cl)cc1Cl | 83.6
Cc1cc(Nc2nc(-c3ccccc3)nc3ccccc23)n[nH]1 | 53.1
CC[n+]1c(/C=C/N(C)c2ccccc2)n(-c2ccccc2)c2ccc(-c3nc4ccccc4s3)cc21 | 98.6
N#CC(=C(N)Sc1ccc(N)cc1)c1ccccc1C(F)(F)F | 104
Cc1ccc(NC2=CC(=O)c3sc(C)nc3C2=O)cc1 | 77.4
CCCC(=O)Oc1ccc2[nH]c(C(=O)c3cc4ccccc4[nH]3)cc2c1 | 91
Oc1ccc(Nc2nc(-c3ccc(Cl)cc3)cs2)cc1 | 105
O=C1NC(=O)C(c2c[nH]c3ccccc23)=C1c1c[nH]c2ccccc12 | 104
Fc1ccc(-c2nc3n(c2-c2ccncc2)CCS3)cc1 | 97.6
Nc1ncnc2c1cnn2-c1ccccc1 | 97
CC(C)(C)n1nc(Cc2cccc3ccccc23)c2c(N)ncnc21 | 92.9
O=C1Cc2c([nH]c3ccc([N+](=O)[O-])cc23)-c2ccccc2N1 | 71.4
CSc1nc(-c2ccnc(N[C@@H](C)c3ccccc3)c2)c(-c2ccc(F)cc2)[nH]1 (racemic) | 85.3
CC(=O)c1ccc(N2CCOCC2)cc1O | 102
CC#CC(=O)Nc1cc2c(Nc3ccc(F)c(Cl)c3)ncnc2cn1 | 102
O=S(=O)(NCCNC/C=C/c1ccc(Br)cc1)c1cccc2cnccc12 | 91.4
NC(=O)c1ccc(N(C(N)=O)c2c(F)cccc2F)nc1-c1ccc(F)cc1F | 96.4

A few entries again (series 4):
Compound | remaining activity [%]
COc1ccc(S(=O)(=O)N(CCO)c2ccccc2CN(C)CC=Cc2ccc(Cl)cc2)cc1 | 107
Nc1nccc(-c2c(-c3ccc(F)cc3)ncn2C2CCNCC2)n1 | 101
Cc1cncc2cccc(S(=O)(=O)N3CCCN(C(=O)CN)C[C@@H]3C)c12 | 100
CCc1[nH]c(-c2ccc(OC)cc2)nc1-c1ccncc1 | 101
COc1cc(Nc2c(C#N)cnc3cc(OCCCN4CCN(C)CC4)c(OC)cc23)c(Cl)cc1Cl | 83.6
Cc1cc(Nc2nc(-c3ccccc3)nc3ccccc23)n[nH]1 | 53.1
